Assay results gathered from unrelated publications.
Lines come from different studies, so protocols differ. pIC50: −log10 of the molar value.
Target: Cholinesterase (BCHE, Homo sapiens, UniProt P06276)
Sequence of UniProt P06276 (whole entry, looked up): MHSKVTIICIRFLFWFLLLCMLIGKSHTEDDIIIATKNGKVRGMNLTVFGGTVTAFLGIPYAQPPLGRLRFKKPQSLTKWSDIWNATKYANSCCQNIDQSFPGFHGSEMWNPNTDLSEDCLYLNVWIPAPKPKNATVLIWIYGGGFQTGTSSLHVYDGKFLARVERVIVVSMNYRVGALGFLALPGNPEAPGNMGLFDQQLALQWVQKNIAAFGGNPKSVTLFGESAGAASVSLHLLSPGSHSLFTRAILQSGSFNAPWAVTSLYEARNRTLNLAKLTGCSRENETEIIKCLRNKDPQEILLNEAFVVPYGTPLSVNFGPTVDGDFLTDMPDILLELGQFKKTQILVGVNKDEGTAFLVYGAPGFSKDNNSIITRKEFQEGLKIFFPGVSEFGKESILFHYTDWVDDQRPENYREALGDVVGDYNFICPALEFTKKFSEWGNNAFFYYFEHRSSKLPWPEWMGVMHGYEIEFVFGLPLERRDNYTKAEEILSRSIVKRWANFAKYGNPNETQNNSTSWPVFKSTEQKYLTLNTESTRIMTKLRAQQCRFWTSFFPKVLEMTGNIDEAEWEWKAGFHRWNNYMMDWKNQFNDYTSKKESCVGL
Read-out: enzyme activity
Mode: inhibitor
Method: Ellman

C#CCN1CCN(CCCOc2ccc3nc(Cl)c(/C=[N+](\[O-])C(C)(C)C)cc3c2)CC1  pIC50: 5.08
NNC(=O)c1ccc(-n2nc(-c3ccccc3O)nc2-c2ccccc2O)cc1  pIC50: 7.03
O=c1c(O)c(-c2cc(O)ccc2O)oc2cc(O)cc(O)c12  pIC50: 3.52
COc1cc2c(cc1OC)C(=O)/C(=C\c1ccc(Cl)cc1)C2  pIC50: < 3.00
CCS(=O)(=O)N1CCN(CC(=O)Nc2ccc(/C=C/C(=O)c3ccc(OC)c(OC)c3)cc2)CC1  pIC50: < 3.00
CN1c2ccc(OC(=O)Nc3ccccc3)cc2[C@@]2(C)CCNC12 (single isomer, unassigned; (+))  pIC50 (pH 8, with preincubation): < 5.00
COc1cc2c(cc1OC)C(=O)/C(=C\c1ccc(N3CCCCC3)cc1)C2  pIC50: 3.25
COC1(c2ccccc2)CC(=O)c2c(cc3c(c2O)C=CC(C)(C)O3)O1 (stereo not shown)  pIC50: < 3.70
COC(=O)c1ccc(-n2nc(-c3ccccc3O)nc2-c2ccccc2O)cc1  pIC50: 6.35
COc1cc2c(cc1OC)C(=O)/C(=C\c1ccc(N3CCCC3)cc1)C2  pIC50: 3.30
CCOc1ccc2nc3cc(N)ccc3c(N)c2c1  pIC50: 5.62
O=[N+]([O-])c1cccc(C2=Nn3c(nnc3-c3ccc(-n4nc(-c5ccccc5O)nc4-c4ccccc4O)cc3)SC2)c1  pIC50: 5.16
COc1cc2c(cc1OC)C(=O)/C(=C\c1ccccc1)C2  pIC50: < 3.00
CC(C)(O)c1cc2c(ccc3c(=O)cc(-c4ccccc4)oc32)o1  pIC50: < 3.70
CSc1ccc(C2=Nn3c(nnc3-c3ccc(-n4nc(-c5ccccc5O)nc4-c4ccccc4O)cc3)SC2)cc1  pIC50: 6.05
Cc1ccc(C[n+]2cccc(CNC(=O)c3ccc(CN4C(=O)c5ccccc5C4=O)cc3)c2)cc1  pIC50: 5.59
CC1(C)C=Cc2c(cc3oc(-c4ccccc4)cc(=O)c3c2O)O1  pIC50: 5.40
O=C(NCc1ccc[n+](Cc2ccc(Cl)cc2)c1)c1ccc(CN2C(=O)c3ccccc3C2=O)cc1  pIC50: 5.89
COc1cc2c(=O)cc(-c3ccccc3)oc2c2c1OC(C)(C)C=C2  pIC50: 5.94

For quick reference, copied from above:
COc1cc2c(cc1OC)C(=O)/C(=C\c1ccc(N3CCCC3)cc1)C2  pIC50: 3.30
CCOc1ccc2nc3cc(N)ccc3c(N)c2c1  pIC50: 5.62
